# Experimental data from different studies.
# Every numbered part comes from another study and shows a few of its results, in no order.
# UniProt P42336, sequence (whole entry, unmodified, looked up): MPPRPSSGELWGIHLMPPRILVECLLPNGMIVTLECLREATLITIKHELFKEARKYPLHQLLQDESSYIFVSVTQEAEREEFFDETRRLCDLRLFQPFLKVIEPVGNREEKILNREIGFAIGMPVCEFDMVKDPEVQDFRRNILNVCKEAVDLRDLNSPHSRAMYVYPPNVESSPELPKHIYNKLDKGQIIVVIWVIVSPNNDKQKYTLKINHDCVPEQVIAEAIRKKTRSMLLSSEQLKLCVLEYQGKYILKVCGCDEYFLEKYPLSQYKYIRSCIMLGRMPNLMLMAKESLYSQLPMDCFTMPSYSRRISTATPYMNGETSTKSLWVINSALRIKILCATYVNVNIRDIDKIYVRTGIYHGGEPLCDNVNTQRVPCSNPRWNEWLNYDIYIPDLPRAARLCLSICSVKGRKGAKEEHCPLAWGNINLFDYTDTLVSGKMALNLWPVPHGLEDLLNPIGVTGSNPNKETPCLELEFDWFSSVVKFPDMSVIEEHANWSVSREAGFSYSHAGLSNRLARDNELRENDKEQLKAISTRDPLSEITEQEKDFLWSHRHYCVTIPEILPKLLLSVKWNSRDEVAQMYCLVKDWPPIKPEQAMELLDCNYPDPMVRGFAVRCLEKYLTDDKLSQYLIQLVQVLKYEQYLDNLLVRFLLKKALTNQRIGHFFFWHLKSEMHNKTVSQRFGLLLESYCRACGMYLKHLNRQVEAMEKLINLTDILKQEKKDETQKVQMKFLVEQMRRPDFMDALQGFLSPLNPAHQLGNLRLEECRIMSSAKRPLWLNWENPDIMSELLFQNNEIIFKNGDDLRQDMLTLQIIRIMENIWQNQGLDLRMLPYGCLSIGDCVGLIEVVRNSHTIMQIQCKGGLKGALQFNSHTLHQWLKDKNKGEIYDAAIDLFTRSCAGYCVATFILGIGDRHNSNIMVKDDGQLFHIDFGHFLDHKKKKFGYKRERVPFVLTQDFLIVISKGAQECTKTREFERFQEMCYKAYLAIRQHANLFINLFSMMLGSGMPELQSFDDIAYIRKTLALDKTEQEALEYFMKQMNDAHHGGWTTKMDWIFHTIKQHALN
# UniProt Q9BQI3, sequence (whole entry, looked up): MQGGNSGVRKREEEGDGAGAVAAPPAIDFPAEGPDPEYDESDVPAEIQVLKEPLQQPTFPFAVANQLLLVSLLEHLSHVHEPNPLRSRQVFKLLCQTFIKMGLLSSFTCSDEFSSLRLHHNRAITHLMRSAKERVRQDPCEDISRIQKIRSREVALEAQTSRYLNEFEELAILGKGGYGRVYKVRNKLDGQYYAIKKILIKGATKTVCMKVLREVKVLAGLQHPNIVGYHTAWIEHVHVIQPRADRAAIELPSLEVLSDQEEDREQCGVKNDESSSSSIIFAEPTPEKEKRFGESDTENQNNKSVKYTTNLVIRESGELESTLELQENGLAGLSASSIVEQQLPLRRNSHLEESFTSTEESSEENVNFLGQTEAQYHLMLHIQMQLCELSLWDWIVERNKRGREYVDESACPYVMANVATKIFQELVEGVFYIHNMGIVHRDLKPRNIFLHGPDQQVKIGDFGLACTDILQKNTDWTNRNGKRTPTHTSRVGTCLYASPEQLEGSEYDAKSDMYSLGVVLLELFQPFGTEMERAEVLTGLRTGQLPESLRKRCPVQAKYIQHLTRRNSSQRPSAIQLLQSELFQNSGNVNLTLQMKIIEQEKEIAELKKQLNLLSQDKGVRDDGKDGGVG
# UniProt Q9BVS4, sequence (whole entry, looked up): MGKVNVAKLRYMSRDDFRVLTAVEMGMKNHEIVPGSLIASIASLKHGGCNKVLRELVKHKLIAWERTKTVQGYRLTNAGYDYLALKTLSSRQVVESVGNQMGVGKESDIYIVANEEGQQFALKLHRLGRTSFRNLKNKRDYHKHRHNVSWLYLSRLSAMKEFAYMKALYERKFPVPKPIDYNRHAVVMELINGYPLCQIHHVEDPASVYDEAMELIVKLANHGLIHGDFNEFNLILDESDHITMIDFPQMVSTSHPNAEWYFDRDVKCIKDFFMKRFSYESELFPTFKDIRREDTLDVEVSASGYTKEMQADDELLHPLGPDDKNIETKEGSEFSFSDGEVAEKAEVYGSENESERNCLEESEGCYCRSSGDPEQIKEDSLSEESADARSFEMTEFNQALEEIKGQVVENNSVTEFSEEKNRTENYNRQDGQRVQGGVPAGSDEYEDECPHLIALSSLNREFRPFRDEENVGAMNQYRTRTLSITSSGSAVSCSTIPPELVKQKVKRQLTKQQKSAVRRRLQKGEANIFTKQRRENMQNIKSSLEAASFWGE
# UniProt P41743, sequence (whole entry, looked up): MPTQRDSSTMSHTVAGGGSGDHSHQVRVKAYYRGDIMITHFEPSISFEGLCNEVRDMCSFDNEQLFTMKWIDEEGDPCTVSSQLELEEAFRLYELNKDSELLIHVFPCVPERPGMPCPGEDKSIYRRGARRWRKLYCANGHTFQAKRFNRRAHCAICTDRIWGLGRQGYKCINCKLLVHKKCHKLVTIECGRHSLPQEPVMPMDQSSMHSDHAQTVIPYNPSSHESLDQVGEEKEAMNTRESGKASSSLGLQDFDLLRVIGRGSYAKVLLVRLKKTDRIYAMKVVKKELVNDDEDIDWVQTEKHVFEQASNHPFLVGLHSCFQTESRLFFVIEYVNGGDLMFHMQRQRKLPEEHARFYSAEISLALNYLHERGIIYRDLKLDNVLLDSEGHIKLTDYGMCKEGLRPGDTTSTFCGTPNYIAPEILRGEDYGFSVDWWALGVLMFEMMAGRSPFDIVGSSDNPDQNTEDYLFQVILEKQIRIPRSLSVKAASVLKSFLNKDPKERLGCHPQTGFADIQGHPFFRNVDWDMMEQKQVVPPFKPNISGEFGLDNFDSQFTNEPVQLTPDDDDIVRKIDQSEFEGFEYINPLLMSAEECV
# UniProt P80192, sequence (whole entry, looked up): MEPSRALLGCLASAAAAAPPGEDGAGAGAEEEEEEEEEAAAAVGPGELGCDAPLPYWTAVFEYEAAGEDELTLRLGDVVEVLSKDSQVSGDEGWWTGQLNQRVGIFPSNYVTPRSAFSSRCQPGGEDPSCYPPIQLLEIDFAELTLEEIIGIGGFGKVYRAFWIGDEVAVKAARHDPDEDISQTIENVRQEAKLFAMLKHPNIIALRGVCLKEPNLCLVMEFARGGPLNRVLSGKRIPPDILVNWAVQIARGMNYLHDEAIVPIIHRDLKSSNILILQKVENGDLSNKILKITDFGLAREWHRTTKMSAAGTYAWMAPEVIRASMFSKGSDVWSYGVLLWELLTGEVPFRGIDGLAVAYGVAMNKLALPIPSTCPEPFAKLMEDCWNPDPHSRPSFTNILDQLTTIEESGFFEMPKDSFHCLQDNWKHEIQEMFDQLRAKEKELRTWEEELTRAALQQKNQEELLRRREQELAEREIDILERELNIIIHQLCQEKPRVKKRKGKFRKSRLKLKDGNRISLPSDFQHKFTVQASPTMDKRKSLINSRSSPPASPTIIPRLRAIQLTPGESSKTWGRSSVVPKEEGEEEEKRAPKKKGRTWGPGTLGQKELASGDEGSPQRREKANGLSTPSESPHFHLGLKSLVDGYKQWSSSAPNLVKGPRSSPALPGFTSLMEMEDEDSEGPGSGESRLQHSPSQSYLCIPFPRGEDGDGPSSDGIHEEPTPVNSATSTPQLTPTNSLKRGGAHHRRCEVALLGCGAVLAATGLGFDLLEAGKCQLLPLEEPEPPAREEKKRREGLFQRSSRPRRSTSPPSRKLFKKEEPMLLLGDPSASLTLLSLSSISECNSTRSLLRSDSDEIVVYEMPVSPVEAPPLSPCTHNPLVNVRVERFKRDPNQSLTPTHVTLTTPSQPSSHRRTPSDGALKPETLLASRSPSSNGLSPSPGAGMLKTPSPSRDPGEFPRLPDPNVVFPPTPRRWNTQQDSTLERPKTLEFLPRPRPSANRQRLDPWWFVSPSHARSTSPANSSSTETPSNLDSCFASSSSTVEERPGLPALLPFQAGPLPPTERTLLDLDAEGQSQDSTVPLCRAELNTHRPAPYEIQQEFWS
# UniProt Q8N752, sequence (whole entry, looked up): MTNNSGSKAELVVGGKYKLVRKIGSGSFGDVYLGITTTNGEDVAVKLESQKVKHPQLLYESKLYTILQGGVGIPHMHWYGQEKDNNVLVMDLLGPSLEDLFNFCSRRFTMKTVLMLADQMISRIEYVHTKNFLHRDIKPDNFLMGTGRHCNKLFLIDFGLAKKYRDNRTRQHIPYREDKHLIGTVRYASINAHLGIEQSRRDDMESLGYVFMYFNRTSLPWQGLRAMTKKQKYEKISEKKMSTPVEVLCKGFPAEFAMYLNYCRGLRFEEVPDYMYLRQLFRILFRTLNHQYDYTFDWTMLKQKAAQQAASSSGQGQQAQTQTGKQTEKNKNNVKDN

# Study 1
# Structure (SMILES): O=C(Nc1cnn(-c2csc(C(=O)NC3COC3)c2)c1)Nc1c(F)cccc1Cl
# Read-out: enzyme activity
# Concentration: 5 µM
target,mode,baseline,remaining activity
"MAP3K9 (Homo sapiens, UniProt P80192)",,untreated control,88%
"CSNK1A1L (Homo sapiens, UniProt Q8N752)",inhibitor,,81.1%
"CAMK1D (Homo sapiens, UniProt Q8IU85)",,untreated control,98.9%
"EPHA7 (Homo sapiens, UniProt Q15375)",,untreated control,89.8%
"PRKCI (Homo sapiens, UniProt P41743)",,untreated control,81.4%
"FRK (Homo sapiens, UniProt P42685)",,untreated control,95.6%
"EPHA5 (Homo sapiens, UniProt P54756)",,untreated control,92%
"FER (Homo sapiens, UniProt P16591)",,untreated control,89.2%

# Study 2
# Compound: CNCc1ccccc1-c1csc([C@H](C)Nc2nc(C)nc3cc(OC)c(OC)cc23)c1
# Read-out: cell-free assay
# Technique: competition with immobilised ligand
# Concentration: 1 µM
target,remaining binding
"MAP4K1 (Homo sapiens, UniProt Q92918)",100%
"STK38L (Homo sapiens, UniProt Q9Y2H1)",94%
"EIF2AK1 (Homo sapiens, UniProt Q9BQI3)",100%
"OXSR1 (Homo sapiens, UniProt O95747)",78%
"FLT1 (Homo sapiens, UniProt P17948)",91%
"LATS2 (Homo sapiens, UniProt Q9NRM7)",95%
"MAP3K15 (Homo sapiens, UniProt Q6ZN16)",77%
"RIOK2 (Homo sapiens, UniProt Q9BVS4)",100%
"EPHB2 (Homo sapiens, UniProt P29323)",100%
"PTK2 (Homo sapiens, UniProt Q05397)",92%
"PIK3CA (Homo sapiens, UniProt P42336, H1047Y)",100%
"ALK (Homo sapiens, UniProt Q9UM73, L1196M)",93%
"FLT3 (Homo sapiens, UniProt P36888, K663Q)",93%

# Study 3
# Host: human
# Matrix: microsomes or S9
# Concentration: 2 µM
# Time: 0.5 h
SMILES,remaining compound
Cn1ncc(N2CC(O)CC2C2CCCCC2)c(Br)c1=O (stereo not drawn),82.9%
N#Cc1nccnc1NCCc1nc2c(s1)CCCC2,0.965%
CCCN(CC(=O)N(C)C)C(=O)CS(=O)(=O)N1CCC(C)CC1,83.2%
CN(CCC1CCOCC1)S(=O)(=O)c1cnn(C)c1,> 100%
CC(C)N(C(=O)COc1nc(Cl)cc(Cl)n1)c1ccccc1,80.9%
CC(C)OCCCN(C)C1CCN(S(=O)(=O)c2ccc3[nH]c(=O)ccc3c2)CC1,95.2%
COc1ccc(-c2csc(/C(C#N)=C3\C=CC=CN3C)n2)cc1,7.58%
Cc1nc[nH]c1-c1nccn1[C@H]1CCc2ccccc21,78.1%
O=C(Nc1cc(Br)cc2c1N(c1ncccn1)CC2)c1ccccc1,4.93%

# Study 4
# Target: Calcium/calmodulin-dependent protein kinase type II subunit alpha (CAMK2A, Homo sapiens, UniProt Q9UQM7)
# UniProt Q9UQM7, sequence (whole entry, looked up): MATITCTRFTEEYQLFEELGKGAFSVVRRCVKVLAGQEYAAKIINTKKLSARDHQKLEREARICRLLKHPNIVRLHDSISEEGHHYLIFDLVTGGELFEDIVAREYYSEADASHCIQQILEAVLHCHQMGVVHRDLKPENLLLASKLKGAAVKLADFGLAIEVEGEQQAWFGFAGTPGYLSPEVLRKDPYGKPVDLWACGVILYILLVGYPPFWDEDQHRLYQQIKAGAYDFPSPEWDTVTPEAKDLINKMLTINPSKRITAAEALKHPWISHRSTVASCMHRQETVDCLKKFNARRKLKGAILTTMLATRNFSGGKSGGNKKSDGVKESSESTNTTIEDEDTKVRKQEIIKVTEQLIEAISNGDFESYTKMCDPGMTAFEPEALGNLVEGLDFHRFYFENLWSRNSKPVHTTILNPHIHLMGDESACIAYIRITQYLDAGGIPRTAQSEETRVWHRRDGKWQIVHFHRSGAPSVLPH
# Read-out: enzyme activity
# Mode: inhibitor
# Concentration: 10 µM
SMILES,inhibition [%]
COc1cc(/C=C/c2ccccc2)oc(=O)c1,5
Cc1cc(O)c(C)c2c1O[C@](C)(CCC[C@H](C)CCC[C@H](C)CCCC(C)C)CC2,-0.04
C[C@@H]1CC[C@]2(C(=O)O)CC[C@]3(C)C(=CC[C@@H]4[C@@]5(C)C[C@@H](O)[C@H](O)C(C)(C)[C@@H]5CC[C@]43C)[C@@H]2[C@]1(C)O,4
CC(C)=CCc1cc([C@@H]2CC(=O)c3ccc(O)c(CC=C(C)C)c3O2)ccc1O,-12
Nc1ccncc1N,3
C/C=C(/C)C(=O)O[C@H]1[C@@H](OC(C)=O)c2c(ccc3ccc(=O)oc23)OC1(C)C,0.01
COc1ccc([C@H]2OC[C@H]3[C@@H]2CO[C@H]3c2cc(OC)c(OC)c(OC)c2)cc1OC,10
O=C(O)CCCCCCC[C@@H](O)[C@@H](O)CCCCCCO,-12
CC1(C)CC[C@]2(C(=O)O)[C@H](O)C[C@]3(C)C(=CC[C@@H]4[C@@]5(C)C[C@H](O)[C@H](O[C@@H]6O[C@H](CO)[C@@H](O)[C@H](O)[C@H]6O)C(CO)(CO)[C@@H]5CC[C@]43C)[C@@H]2C1,3

# Some of these lines once more (study 1):
target,mode,baseline,remaining activity
"CSNK1A1L (Homo sapiens, UniProt Q8N752)",inhibitor,,81.1%
"CAMK1D (Homo sapiens, UniProt Q8IU85)",,untreated control,98.9%
"EPHA7 (Homo sapiens, UniProt Q15375)",,untreated control,89.8%
